Results pooled from the literature.
A part holds a random share of what one study measured.
Sequence of UniProt Q9Y6M4 (whole entry, looked up): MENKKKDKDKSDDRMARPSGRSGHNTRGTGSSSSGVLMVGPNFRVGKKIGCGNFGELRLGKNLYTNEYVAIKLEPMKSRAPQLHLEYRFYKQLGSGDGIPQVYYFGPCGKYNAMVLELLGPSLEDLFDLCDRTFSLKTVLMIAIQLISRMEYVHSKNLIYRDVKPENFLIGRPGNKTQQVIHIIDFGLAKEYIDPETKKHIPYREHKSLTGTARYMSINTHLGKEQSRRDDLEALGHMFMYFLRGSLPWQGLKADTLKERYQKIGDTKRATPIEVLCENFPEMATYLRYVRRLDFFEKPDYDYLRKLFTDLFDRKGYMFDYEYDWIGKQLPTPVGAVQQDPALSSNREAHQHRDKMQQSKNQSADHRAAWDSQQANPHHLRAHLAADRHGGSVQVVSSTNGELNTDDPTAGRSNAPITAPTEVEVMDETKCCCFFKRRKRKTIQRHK
Sequence of UniProt Q9HC98 (whole entry, looked up): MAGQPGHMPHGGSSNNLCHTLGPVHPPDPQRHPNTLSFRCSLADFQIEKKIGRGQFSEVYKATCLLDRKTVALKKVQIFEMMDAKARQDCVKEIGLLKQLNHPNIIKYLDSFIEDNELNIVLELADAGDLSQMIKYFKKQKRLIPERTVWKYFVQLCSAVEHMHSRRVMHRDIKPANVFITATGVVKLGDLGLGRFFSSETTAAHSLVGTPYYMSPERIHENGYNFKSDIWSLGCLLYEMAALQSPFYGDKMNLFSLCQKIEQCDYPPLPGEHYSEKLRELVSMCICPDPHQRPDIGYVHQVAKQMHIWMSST
Sequence of UniProt Q04912 (whole entry, looked up): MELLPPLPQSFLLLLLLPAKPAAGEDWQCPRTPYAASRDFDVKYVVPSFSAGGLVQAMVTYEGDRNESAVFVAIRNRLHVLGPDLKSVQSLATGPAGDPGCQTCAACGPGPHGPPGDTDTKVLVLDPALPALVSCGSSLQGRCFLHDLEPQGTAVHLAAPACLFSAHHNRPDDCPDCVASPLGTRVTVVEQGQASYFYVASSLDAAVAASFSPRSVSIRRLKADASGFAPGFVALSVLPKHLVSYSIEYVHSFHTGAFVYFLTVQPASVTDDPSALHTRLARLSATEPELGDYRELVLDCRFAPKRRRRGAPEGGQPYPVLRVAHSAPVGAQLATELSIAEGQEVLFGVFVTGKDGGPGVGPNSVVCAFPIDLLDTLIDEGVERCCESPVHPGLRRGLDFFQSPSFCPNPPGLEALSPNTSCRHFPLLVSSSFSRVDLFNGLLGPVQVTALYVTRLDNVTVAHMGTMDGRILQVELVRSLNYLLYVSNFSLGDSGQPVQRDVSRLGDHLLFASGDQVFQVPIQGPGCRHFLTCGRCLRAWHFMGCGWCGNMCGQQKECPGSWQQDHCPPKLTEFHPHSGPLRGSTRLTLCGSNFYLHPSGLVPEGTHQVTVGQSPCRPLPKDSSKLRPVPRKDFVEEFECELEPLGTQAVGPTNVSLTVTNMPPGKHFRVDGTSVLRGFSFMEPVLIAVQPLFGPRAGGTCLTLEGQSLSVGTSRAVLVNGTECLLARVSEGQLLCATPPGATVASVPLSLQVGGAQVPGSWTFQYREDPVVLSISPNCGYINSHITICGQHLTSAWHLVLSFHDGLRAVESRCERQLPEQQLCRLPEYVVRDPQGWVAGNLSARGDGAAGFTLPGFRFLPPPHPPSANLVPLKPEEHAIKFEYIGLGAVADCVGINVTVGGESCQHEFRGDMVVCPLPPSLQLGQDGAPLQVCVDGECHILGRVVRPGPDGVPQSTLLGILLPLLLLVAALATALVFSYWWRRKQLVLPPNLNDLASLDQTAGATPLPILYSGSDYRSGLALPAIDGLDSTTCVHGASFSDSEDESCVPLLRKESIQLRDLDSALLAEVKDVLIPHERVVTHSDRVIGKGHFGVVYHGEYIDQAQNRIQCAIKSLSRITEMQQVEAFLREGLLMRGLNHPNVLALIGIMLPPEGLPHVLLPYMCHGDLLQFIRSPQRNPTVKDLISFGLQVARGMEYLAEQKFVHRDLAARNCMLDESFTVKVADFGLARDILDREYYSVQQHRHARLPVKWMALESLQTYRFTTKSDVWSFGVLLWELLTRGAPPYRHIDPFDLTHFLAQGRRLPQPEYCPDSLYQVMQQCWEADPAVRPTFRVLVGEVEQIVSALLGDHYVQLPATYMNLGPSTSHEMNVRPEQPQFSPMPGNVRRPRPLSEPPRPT
Sequence of UniProt P30291 (whole entry, looked up): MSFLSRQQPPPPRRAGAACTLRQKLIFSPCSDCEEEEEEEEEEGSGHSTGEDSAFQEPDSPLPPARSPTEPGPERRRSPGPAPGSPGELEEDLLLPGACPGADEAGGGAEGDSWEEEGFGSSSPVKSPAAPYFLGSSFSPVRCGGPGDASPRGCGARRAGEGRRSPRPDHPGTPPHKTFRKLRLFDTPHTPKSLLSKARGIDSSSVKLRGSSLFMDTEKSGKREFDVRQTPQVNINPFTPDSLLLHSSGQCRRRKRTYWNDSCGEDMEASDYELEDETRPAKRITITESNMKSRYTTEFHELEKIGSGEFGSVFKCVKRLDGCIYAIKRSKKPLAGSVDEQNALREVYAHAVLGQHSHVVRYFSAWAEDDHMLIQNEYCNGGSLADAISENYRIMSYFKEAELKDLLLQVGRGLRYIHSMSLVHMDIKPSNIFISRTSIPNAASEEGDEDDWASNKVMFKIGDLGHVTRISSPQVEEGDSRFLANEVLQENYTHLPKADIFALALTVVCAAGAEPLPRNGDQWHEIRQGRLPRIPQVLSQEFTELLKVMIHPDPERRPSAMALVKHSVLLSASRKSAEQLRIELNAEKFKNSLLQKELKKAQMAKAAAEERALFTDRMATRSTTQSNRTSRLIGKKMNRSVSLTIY
Sequence of UniProt P29320 (whole entry, looked up): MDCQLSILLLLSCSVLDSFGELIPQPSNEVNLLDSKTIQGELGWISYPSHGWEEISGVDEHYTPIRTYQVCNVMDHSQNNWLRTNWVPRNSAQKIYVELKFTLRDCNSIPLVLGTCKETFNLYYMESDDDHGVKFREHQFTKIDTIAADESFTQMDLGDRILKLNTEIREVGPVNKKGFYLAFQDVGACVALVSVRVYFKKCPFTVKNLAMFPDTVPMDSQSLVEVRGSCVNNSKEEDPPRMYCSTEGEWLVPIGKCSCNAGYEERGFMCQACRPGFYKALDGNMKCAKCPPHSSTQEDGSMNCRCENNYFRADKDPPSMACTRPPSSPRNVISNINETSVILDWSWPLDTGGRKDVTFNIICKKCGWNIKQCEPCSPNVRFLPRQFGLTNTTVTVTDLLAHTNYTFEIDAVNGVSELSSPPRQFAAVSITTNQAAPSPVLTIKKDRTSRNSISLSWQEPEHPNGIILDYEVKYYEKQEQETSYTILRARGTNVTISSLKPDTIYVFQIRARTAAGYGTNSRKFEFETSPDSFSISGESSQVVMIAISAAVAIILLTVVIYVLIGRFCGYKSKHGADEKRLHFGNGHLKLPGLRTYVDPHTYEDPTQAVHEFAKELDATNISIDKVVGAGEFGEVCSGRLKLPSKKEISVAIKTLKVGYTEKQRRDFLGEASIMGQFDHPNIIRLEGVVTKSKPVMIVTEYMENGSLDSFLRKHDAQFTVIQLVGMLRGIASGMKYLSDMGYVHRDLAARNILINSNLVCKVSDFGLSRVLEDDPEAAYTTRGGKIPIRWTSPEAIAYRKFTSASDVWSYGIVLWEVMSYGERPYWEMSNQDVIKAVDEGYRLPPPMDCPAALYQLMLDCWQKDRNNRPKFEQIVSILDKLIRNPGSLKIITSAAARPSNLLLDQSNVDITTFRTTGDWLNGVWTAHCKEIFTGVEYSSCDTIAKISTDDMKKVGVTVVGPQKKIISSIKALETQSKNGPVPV
Sequence of UniProt Q96PY6 (whole entry, looked up): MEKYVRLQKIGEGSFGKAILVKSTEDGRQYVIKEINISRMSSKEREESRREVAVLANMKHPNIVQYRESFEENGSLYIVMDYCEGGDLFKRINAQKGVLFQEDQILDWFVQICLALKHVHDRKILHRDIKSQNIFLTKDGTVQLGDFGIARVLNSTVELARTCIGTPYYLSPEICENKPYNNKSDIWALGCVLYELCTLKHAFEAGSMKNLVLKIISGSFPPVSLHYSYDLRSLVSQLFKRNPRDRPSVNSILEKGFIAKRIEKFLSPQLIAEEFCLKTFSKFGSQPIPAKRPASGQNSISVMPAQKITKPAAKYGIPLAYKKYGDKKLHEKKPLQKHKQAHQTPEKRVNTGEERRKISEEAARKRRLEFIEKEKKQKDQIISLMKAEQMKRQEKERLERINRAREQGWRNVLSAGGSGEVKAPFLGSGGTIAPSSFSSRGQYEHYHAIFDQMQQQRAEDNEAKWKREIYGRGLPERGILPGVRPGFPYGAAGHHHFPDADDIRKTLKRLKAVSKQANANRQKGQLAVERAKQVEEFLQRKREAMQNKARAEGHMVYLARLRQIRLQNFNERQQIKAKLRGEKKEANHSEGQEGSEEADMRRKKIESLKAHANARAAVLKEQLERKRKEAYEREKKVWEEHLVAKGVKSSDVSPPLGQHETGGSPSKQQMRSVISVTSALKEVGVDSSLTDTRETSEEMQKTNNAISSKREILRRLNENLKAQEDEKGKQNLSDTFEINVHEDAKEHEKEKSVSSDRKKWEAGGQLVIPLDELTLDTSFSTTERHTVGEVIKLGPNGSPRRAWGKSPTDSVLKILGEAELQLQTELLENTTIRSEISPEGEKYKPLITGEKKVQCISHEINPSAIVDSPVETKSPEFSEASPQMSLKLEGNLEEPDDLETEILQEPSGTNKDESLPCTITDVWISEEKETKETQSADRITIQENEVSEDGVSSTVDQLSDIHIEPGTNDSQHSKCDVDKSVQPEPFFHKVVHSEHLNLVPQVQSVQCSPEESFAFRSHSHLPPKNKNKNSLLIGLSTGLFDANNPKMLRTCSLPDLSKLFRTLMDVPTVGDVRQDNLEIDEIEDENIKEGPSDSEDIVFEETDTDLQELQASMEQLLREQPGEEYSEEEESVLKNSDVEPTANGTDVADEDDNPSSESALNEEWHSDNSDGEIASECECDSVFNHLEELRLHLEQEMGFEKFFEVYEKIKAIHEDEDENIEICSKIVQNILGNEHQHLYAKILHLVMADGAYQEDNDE

Series 1
Target: Prothrombin, mature alpha-thrombin (F2, Homo sapiens, UniProt P00734)
Technique: aptamer microarray, sandwich
Form: DNA with 2'F-ANA
Matrix: in vitro
Concentration: 200 nM
Notes: whole 15-mer aptamer, many near background
With: Cy3 exosite-II aptamer, 400 nM
Reading: higher = stronger binding
Sequence: GGTTGGTGTGGTTGG
`2'F-ANA at 2 11 13 15`: “mean fluorescence intensity” 278 a.u.
`2'F-ANA at 1 3 4 5 7 8 9 11 12 14` — result for “mean fluorescence intensity”: 48.1 a.u.
`2'F-ANA at 4 10 11 15` — result for “mean fluorescence intensity”: 78.7 a.u.
`2'F-ANA at 1 2 5 7 11 13 15`: “mean fluorescence intensity” 55.4 a.u.
For `2'F-ANA at 3 5 6 10 12 15`, “mean fluorescence intensity” read 59 a.u.
`2'F-ANA at 2 4 5 6 7 8 9` — result for “mean fluorescence intensity”: 92.9 a.u.
Under “mean fluorescence intensity”, `2'F-ANA at 10 15` is recorded as 179 a.u.
Under “mean fluorescence intensity”, `2'F-ANA at 1 6 7 8 9 11 14` is recorded as 58.2 a.u.

Series 2
Target: Hepatocyte nuclear factor 3-alpha (Foxa1, Mus musculus, UniProt P35582, residues 1-468, full length assumed)
Technique: EMSA with sequencing
Form: double-stranded DNA, one strand shown
Matrix: in vitro
Concentration: 10 and 20 nM
Notes: whole designed probe, mean of two concentrations, ends assumed
Relative to: negative control set to 0
Reading: higher = stronger binding
Shared flanks, not repeated: GTGAGCGGTGCCCATTGATGGGGAAC … TTTCACTGGGATCGTGGGGAC
Residues (chain): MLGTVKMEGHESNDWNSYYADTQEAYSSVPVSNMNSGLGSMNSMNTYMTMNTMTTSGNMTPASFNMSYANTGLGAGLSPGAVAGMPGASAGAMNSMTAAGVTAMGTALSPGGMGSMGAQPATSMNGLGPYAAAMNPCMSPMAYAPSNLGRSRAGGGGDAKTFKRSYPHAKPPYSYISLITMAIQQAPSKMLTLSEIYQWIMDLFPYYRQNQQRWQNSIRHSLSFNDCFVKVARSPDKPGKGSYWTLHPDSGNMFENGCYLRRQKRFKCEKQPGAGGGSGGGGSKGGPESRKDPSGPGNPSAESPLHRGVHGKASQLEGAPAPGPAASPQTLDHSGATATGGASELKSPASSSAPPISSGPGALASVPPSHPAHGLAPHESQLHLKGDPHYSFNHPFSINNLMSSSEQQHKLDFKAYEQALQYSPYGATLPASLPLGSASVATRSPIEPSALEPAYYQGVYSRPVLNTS
`CCCATGTTAAGAGGCCAGGCAGACAGACCTAGGGCTGGATCTGCAGATAAGTCATCTACACTGGACCCTTGGCTTTGCTTTTAATTGGTTCAAAAATTGCACAGTGACATCACACCTGCGCCTTACCTACTCAATAACAAGCTTTCTCTCAGTCACCCAGAAGAAACTGCAAAGAAAAGCAAATTGTTTCAGG`: “normalised bound fraction” -0.0155 ratio.
`CCAAAGTATCACAGGGAGAGATGGGCCTCTTGGGGCAGCAGCAGCAGCTGAAGCAGGCAGACTCTCAGCTGCTTCTAATATGCTAGGCTTTGTGTAAACAGGCTTTATGACACAAGTGGGCTGACTACAGTGCAATTGGAGTGTGGCATCAGAGTCTCTGTGAGGCTCTAGCTGGCTTCTTCCAGCCCTGGCC`: “normalised bound fraction” 0.3 ratio.
For `TTATTTTGATAACATCTCCTTTTCATTAGAACCTTCCTCTCTAGTCCCTCTATTTCAATCTTTAATGTTGTTCTTTGTGCTGTTTCATGCCTTTGTTTACATTCTTACACACACACACCCCATTCCTGGAATTTCCCTCCTAGTCGTCTCTGCCTGAAAAAAAACCCTACTAACCCTTTGAGGCCAGCTCAGA`, “normalised bound fraction” read 0.435 ratio.
`AGCAAGGCTTTAAAAGTGAGGTCTTTCAGTTTAGATGCAAAAAGGGTGGTTCTGTTGAGGTTTCGTAATTCAACCCAGCTATTTCACTACATAGTAAACACCTAGAATGAGGTAGCTGGAGTGCAAATCTAAATGGCTTGTGACAGTTAAGGAAGTACATAGGCAACAGTTACTGGTTTTCTTGATGCAGCTG` — result for “normalised bound fraction”: -0.00376 ratio.
`CTCTTGTGATGAAAATTAAAGTTGTTATATAATCTCTATTATATAGTAAAATGATTTTTTTCTCAGGAATTACATCAACTCAAAGAAGTCTCTGTTTACTTTGACATCTGAACTTTCACTTTATCCGCTAGTTATAATTCCTTGGTTATCATTATCATTACATAAATTTTTCTTTCTGAAAATGGATGATAGT`: “normalised bound fraction” 0.393 ratio.
`ATCCACGAACCTGGCCCTGTCTGGTAACCACAGTGAACCATCGCAAGATACAGCACTATGTGCCCAGTTGGGCTTAATGACTCACGGAACCAGTGTTGACACATCACATCCTCAGGGACACGGAAGTGTACTTGTTTTTGGAGAGGGACTAGACCTTCATCCTTGAGGTGAAGAAGATTTTCTCTCCAGGGTG` — result for “normalised bound fraction”: 0.105 ratio.
`AACAACCAGGAGGAAACAGGGTGATTATTGATTCAAGAGAAAACAGAATATTTGTGGATTTAGGGTCAATAAAACAACCTCCACAAATGTTAAAGTAAACAAGGAAAAATATAGCTTTAAAAAATGGACAACTAGGAGAATTTCTTTTCACATAGCAATGCAATTTTCTCCTCACAGTGATAGTCATAATTTC`: “normalised bound fraction” 0.453 ratio.
Under “normalised bound fraction”, `AGGGATGTAGACAGAGAGGCAGTTTGAATAATTTTGGAGTACATTTTACTTTAGTTTGAATGGGAGATGGTAAGAGGCAACTGGTTGGCTAAGTAAACAGCAAAAAATAGCTTTAGGTTCAGAGTCTTTCCTTGATTTCCTCTCAATAGCTCTGAGCATAGTCCTACCGCAATTTGTAGTATAAAAACATAAC` is recorded as 0.352 ratio.

Series 3
Compound: O=C(Nc1ccc(Oc2ccc(F)cc2)cc1)N1CCc2ncccc2[C@H]1c1ccc(F)cc1
Read-out: cell-free assay
Technique: competition with immobilised ligand
Concentration: 1 µM
The remaining binding was 80% (CSNK1G3 (Homo sapiens, UniProt Q9Y6M4)).
The remaining binding was 100% (IKBKB (Homo sapiens, UniProt O14920)).
For TGFBR1 (Homo sapiens, UniProt P36897): remaining binding read 85%.
For PIK3CA (Homo sapiens, UniProt P42336, I800L): remaining binding read 66%.
NTRK3 (Homo sapiens, UniProt Q16288) — remaining binding: 68%.
It gave 91% for remaining binding (Ribosomal protein S6 kinase alpha-6, N-terminal kinase domain (RPS6KA6, Homo sapiens, UniProt Q9UK32)).

Series 4
Structure (SMILES): Cc1nc2cc3nc(-c4cccs4)cnc3cc2n1C
Read-out: enzyme activity
Action: inhibitor
Concentration: 0.5 µM
Relative to: control
MAP3K14 (Homo sapiens, UniProt Q99558) — remaining activity: 97.4%.
FRK (Homo sapiens, UniProt P42685) — remaining activity: 98.9%.
The remaining activity was 99.2% (NEK6 (Homo sapiens, UniProt Q9HC98)).
For MAP3K5 (Homo sapiens, UniProt Q99683): remaining activity read 98.9%.
NEK1 (Homo sapiens, UniProt Q96PY6) — remaining activity: 94%.
CSNK1G2 (Homo sapiens, UniProt P78368) — remaining activity: 103%.
The remaining activity was 107% (MST1R (Homo sapiens, UniProt Q04912)).
CSNK1G3 (Homo sapiens, UniProt Q9Y6M4) — remaining activity: 96.1%.
The remaining activity was 86.9% (WEE1 (Homo sapiens, UniProt P30291)).
It gave 102% for remaining activity (EPHA3 (Homo sapiens, UniProt P29320)).
